# Experimental data of several laboratories.
# Lines come from different studies, so protocols differ.
# Target: Calcium/calmodulin-dependent protein kinase type 1G (CAMK1G, Homo sapiens, UniProt Q96NX5)
Compound,assay,conditions,scale,quantity,value
CCN1CCN(Cc2ccc(C(=O)Nc3ccc(C)c(NCc4cnc5[nH]ccc5c4OC)c3)cc2C(F)(F)F)CC1,"binding, competition with immobilised ligand",1 µM,,remaining binding,87%
Cc1ccc(-c2c(/C=C(\C#N)C(=O)NC(C)C)n(CCCO)c3ncnc(N)c23)cc1,"cell-free assay, competition with immobilised ligand",1 µM,,remaining binding,97%
NC(=O)C[C@H]1CCc2sc3ncnc(O[C@H]4CC[C@H](N5CCOCC5)CC4)c3c21,"enzyme activity, inhibitor",10 µM,,inhibition,5%
CC(C)=CC1OC(C)(C)C2C=C3C(=O)C(Cl)=CC(O)C3C3C(O)C4OC4C(=O)C132 (stereo not drawn),"cell-free assay, competition with immobilised ligand",10 µM,,remaining binding,93%
COc1c(Cl)cccc1Nc1c(-c2ccncc2C#C[C@@]2(C)CCCN2C(=O)/C=C/CN(C)C)[nH]c2c1C(=O)NCC2,"cell-free assay, competition with immobilised ligand",3 µM,,remaining binding,93%
CN1CCN(Cc2ccc(-c3ccc(CO[C@H]4CCC[C@@H]4NC(=O)c4cc(-c5cnn(C)c5)cnc4N)cc3)cc2)CC1,"enzyme activity, inhibitor",0.1 µM,,inhibition,5%
Nc1ncc2c(n1)-c1c([nH]c3ccc(C4=CCOCC4)cc13)CCC2,"binding, competition with immobilised ligand",1 µM,,remaining binding,100%
C=CC(=O)N1CCc2ccc(-n3c(=O)ccc4cnc5ccc(-c6cnn(C)c6)cc5c43)cc21,KINOMEscan,1 µM,baseline: DMSO control,remaining binding,92%
NC(=O)[C@@H](O)C[C@H]1CCc2sc3ncnc(O[C@H]4CC[C@H](N5CCOCC5)CC4)c3c21,"enzyme activity, inhibitor",10 µM,,inhibition,5%
Nc1ncc(-c2cc(-c3cnn(CC(F)(F)F)c3)ncc2F)nc1C(=O)NC1CNCC(F)C1 (stereo not drawn),enzyme activity,1 µM,baseline: DMSO control,remaining activity,106%
CNC(=O)C[C@H](Cc1ccc(C#N)cc1)NC(=O)c1cc(-c2ccc(CN[C@H](C)c3ccc(C)cc3)o2)ccc1Cl,"enzyme activity, inhibitor",1 µM,,activity vs control,119%
CNC1C[S+]2CC[S+]3CC[S+](C1)[Ru-4]321([N]=C=S)[n]2c3ccc(OC)cc3c3c4c(c5cc(F)c[n+]1c5c32)C(=O)NC4=O (stereo not drawn),KinomeScan,0.1 µM,baseline: untreated,remaining binding,96%
CNC(=O)C1CCN(c2cc(C)c(F)cc2NC(=O)c2ccc(-c3cc(O)ccc3C)c(C)c2)CC1,"binding, competition with immobilised ligand",1 µM,,remaining binding,90%
Cc1cnc2nc1Nc1cccc(c1)COC/C=C/COCc1cc(ccc1OCCN1CCOCC1)N2,"binding, competition with immobilised ligand",0.1 µM,,remaining binding,100%
C=CC(=O)N1CCCC(n2c(=O)c3ncccc3n(Cc3ccc(Oc4ccccc4)cc3)c2=O)C1 (stereo not drawn),"cell-free assay, competition with immobilised ligand",1 µM,,remaining binding,100%
O=C(Cc1ccc(OCc2ccccc2)cc1)NC1(C(=O)O)CCN(C(=O)c2ccc(-c3cccc(Cl)c3)cc2)CC1,"enzyme activity, inhibitor",10 µM,,activity vs control,108%
CCn1cc(C(=O)O)c(=O)c2c(N)c(F)c(NC3CCCCC3)cc21,kinase activity,"0.1 µM, with: ATP at Km",,inhibition,4.1%
COc1cc(Nc2nccc(-c3cnn4nc(OC)ccc34)n2)cc(C(F)(F)F)c1,"binding, competition with immobilised ligand",1 µM,,remaining binding,92%
C=CC(=O)N1Cc2nc(-c3cc(-c4cc(Cl)cnc4Cl)c(F)cc3F)n(-c3ccncn3)c2C1,cell-free assay,1 µM,,inhibition,-2.9%
CN1CC[C@@H](COc2cnc(C#N)cc2-c2ccn3nc(NC(=O)C4CC4)cc3c2)C1,"enzyme activity, inhibitor",1 µM,,inhibition,1%
COc1cc(Nc2nc(C)cc(-c3cnn4nc(OC)ccc34)n2)cc(C(F)(F)F)c1,inhibitor,1 µM,baseline: control,remaining activity,95%

# A few entries again:
Compound,assay,conditions,scale,quantity,value
C=CC(=O)N1CCCC(n2c(=O)c3ncccc3n(Cc3ccc(Oc4ccccc4)cc3)c2=O)C1 (stereo not drawn),"cell-free assay, competition with immobilised ligand",1 µM,,remaining binding,100%
NC(=O)C[C@H]1CCc2sc3ncnc(O[C@H]4CC[C@H](N5CCOCC5)CC4)c3c21,"enzyme activity, inhibitor",10 µM,,inhibition,5%
Cc1cnc2nc1Nc1cccc(c1)COC/C=C/COCc1cc(ccc1OCCN1CCOCC1)N2,"binding, competition with immobilised ligand",0.1 µM,,remaining binding,100%
